Published values of several laboratories.
Lines come from different studies, so protocols differ. Numbers after ± are the reported error.
CD38: ADP-ribosyl cyclase/cyclic ADP-ribose hydrolase 1 (CD38, Homo sapiens, UniProt P28907)
T1: RNA aptamer; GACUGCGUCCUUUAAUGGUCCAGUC
T2: RNA aptamer A13U; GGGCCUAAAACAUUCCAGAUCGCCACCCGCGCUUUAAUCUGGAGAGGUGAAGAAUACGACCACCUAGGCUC

SMILES | tested on | assay | test system | setting | scale | measurement | result
NC[C@@H]1O[C@H](O[C@H]2[C@@H](O)[C@H](O[C@@H]3[C@@H](O)[C@H](N)C[C@H](N)[C@H]3O[C@H]3O[C@H](CN)[C@@H](O)[C@H](O)[C@H]3N)O[C@@H]2CO)[C@H](N)[C@@H](O)[C@@H]1O | T1, RNA aptamer | UV melting |  | 1 µM RNA, 10 µM molecule, pH 6.8, NaCl 100 mM |  | melting temperature change | 16.1 °C
C=CCc1ccc(O)c(-c2cc(CC=C)ccc2OCCCCCCCCCC[P+](c2ccccc2)(c2ccccc2)c2ccccc2)c1 | Succinate dehydrogenase complex (Homo sapiens, UniProt O14521+P21912+P31040+Q99643) | succinate-driven oxygen consumption | UACC-62 | 0.2 µM, 24 h |  | complex II activity | no effect
CCc1cc(C)n2nc(-c3ccc(OCC[18F])cc3)c(CC(=O)N(CC)CC)c2n1 | Translocator protein (Tspo, Rattus norvegicus, UniProt P16257) | two-tissue compartment model | rat C6 glioma model, brain | 60 min dynamic PET |  | k2 efflux rate constant | 3.1 ± 0.83 min⁻¹
CNc1ccccc1C(=O)O[C@H]1C[C@H](n2cnc3c(N)ncnc32)O[C@@H]1COP(=O)(O)OP(=O)(O)O | Unconventional myosin-Va (Gallus gallus, UniProt Q02440, D297C/G292C/I296C/S293C/V295G) | van't Hoff analysis |  | together with: 10 mM Mg2+ |  | ΔH of pocket step | -4.2 ± 2.8 kcal/mol
CC(=O)NCCN(CC(=O)NCCN(CC(=O)NCCN(CC(=O)NCCC(N)=O)C(=O)[C@@H](N)CCCCN)C(=O)[C@@H](N)Cc1ccccc1)C(=O)[C@@H](N)Cc1ccccc1 | HIV-1 TAR RNA |  |  |  |  | non-electrostatic TΔS° | -5.69 ± 0.335 kcal/mol
CCCCCCCC/C=C\CCCCCCCC(=O)O[C@H]1C=CCO[C@H]1COP(=O)(O)S (stereo partly drawn) | Lysophosphatidic acid receptor 6 (Homo sapiens, UniProt P43657) | agonist, TGFα shedding |  |  |  | Emax | 6.9%
COc1ccc(NC(=O)c2ccccc2)c(C)n1 | Liver carboxylesterase 1 (CES1, Homo sapiens, UniProt P23141) | substrate |  | 50 µM, pH 8, 37 °C, enzyme purity 25% |  | specific activity | 2.3 pmol/min/µg
NCCCC[C@H](NC(=O)[C@H](C/C=C/C[C@H](NC(=O)[C@@H]1CCCN1)C(=O)N[C@@H](CCCCN)C(=O)NCCCN)NC(=O)[C@@H]1CCCN1)C(=O)NCCCN | HIV-1 frameshift site RNA | SPR |  |  |  | residence time | 35 s
CO.COc1ccc2c(c1)c(CC(=O)[O-])c(C)n2C(=O)c1ccc(Cl)cc1.COc1ccc2c(c1)c(CC(=O)[O-])c(C)n2C(=O)c1ccc(Cl)cc1.O.[Co+2].c1ccc(Nc2ccccn2)nc1 | calf thymus DNA | cyclic voltammetry | DMSO/buffer | Co(II)/Co(I) couple | relative to: without DNA | anodic peak potential shift | 4 mV
N=C(CCl)NCCC[C@H](NC(=O)c1ccc(/N=N\c2ccc(O)cc2)cc1)c1nc2ccccc2[nH]1 | Protein-arginine deiminase type-2 (PADI2, Homo sapiens, UniProt Q9Y2J8) | inhibitor, competitive ABPP |  |  | relative to: other photoisomer over this photoisomer | IC50 fold difference | > 8 fold
Cc1cc(Cl)cc(-c2ccnc3cc(CN4C(=O)C5C(C4=O)C5(C)C)sc23)c1C[C@@H]1CNCCO1 (stereo partly drawn) | Ubiquitin carboxyl-terminal hydrolase 7 (USP7, Homo sapiens, UniProt Q93009, V517F) | enzyme activity, inhibitor, Ub-AMC |  |  | relative to: V517F over wild type | IC50 fold change | ~2250 fold
[3H]C([3H])([3H])c1cnccc1CN1C[C@@H](c2cc(F)c(F)c(F)c2)CC1=O | Synaptic vesicle glycoprotein 2A (SV2A, Homo sapiens, UniProt Q7L0J3) | radioligand binding | human control, frontal cortex |  | relative to: P1 fraction over homogenate | specific binding ratio | ~105 fold
COc1c2c(cc3oc(=O)cc(-c4ccc(O)cc4)c13)C(=O)c1cc(C)cc(O)c1C2=O | mushroom tyrosinase | enzyme activity |  | 100 µg/mL, together with: L-DOPA |  | inhibition | 66.9 ± 0.74%
CC1=CC(C)(C)N=C(Nc2nc(C)c3cc(C)cc(C)c3n2)N1 | CD38 | cyclase activity, fluorometric |  | 50 µM, together with: NGD+ substrate | relative to: untreated | remaining activity | 60.9 ± 2.2%
CN(C)c1ccc2c(c1)C(=O)N([C@H](CS)C(=O)O)C2=O | Metallo-beta-lactamase type 2 (Serratia marcescens, UniProt P52699) |  |  | 10 µM, together with: 3 equivalents protein, 10 µM ZnSO4 |  | fluorescence increase | 7.4 fold
O=C1NC(=O)C(=Cc2ccc(-c3cccc(C(F)(F)F)c3)o2)S1 | CD38 | cyclase activity, fluorometric |  | 50 µM, together with: NGD+ substrate | relative to: untreated | remaining activity | 12.9 ± 4.3%
COc1cc(CNC(=O)C[C@H](C)CCC=C(C)C)ccc1OCc1cn(-c2ccccc2F)nn1 | SK-MEL-5 melanoma cells | SRB |  | 10 µM, 48 h |  | growth percent | 70.8%
CSCC[C@H](NC(=O)[C@H](CC(C)C)NC(=O)[C@H](CCCCN(C)C)NC(=O)[C@H](CCCCNC(C)=O)NC(=O)[C@H](Cc1c[nH]cn1)NC(=O)[C@H](CCCNC(=N)N)NC(=O)[C@H](CO)NC(=O)[C@@H](N)[C@@H](C)O)C(=O)N[C@@H](Cc1ccccc1)C(=O)N[C@@H](CCCCN)C(=O)O | human 53BP1 tandem Tudor domain D1521Y |  |  | concentration not given | relative to: wild type over mutant | binding affinity decrease | ~9 fold
CC(=O)NCCN(CC(=O)NCCN(CC(=O)NCCN(CC(=O)NCCC(N)=O)C(=O)C[C@@H](N)CCCNC(=N)N)C(=O)C[C@@H](N)Cc1ccccc1)C(=O)C[C@@H](N)Cc1ccccc1 | HIV-1 TAR RNA |  |  | concentration not given |  | heat capacity change ΔCp | -1.35 ± 0.16 kJ/mol/K
C=CCC(=N)NCCC[C@H](N)C(=O)O | Nitric oxide synthase 1 (Nos1, Rattus norvegicus, UniProt P29476) | NMDA-evoked cGMP accumulation | immature rat hippocampal slices |  |  | Hill slope | 1.1 ± 0.1
NC(=O)C1CCNC(=O)C(Cc2ccc([N+](=O)[O-])cc2)NC(=O)C(Cc2ccco2)NC(=O)C(CC2CC2)NC(=O)C=CC(=O)N1 (stereo not drawn) | Mitogen-activated protein kinase 14 (MAPK14, Homo sapiens, UniProt Q16539) | DNA-templated library selection |  | one selection round |  | enrichment factor | 1.7
COc1nc(OCc2cccc(-c3ccccc3)c2C)ccc1CNCCNC(=O)CCCc1cn(CCC(=O)N[C@@H](CC(=O)O)C(=O)N[C@@H](Cc2c[nH]cn2)C(=O)N[C@@H](CC(C)C)C(=O)N[C@@H](C)C(=O)N[C@@H](CO)C(=O)N[C@@H](CC(C)C)C(=O)N[C@@H](Cc2c[nH]c3ccccc23)C(=O)N[C@@H](Cc2c[nH]c3ccccc23)C(=O)NCC(=O)N[C@H](C(=O)N[C@@H](CCC(=O)O)C(=O)N[C@@H](CC(C)C)C(=O)O)[C@@H](C)O)nn1 | GPC3/CD274 (Homo sapiens, UniProt P51654+Q9NZQ7) | PD-L1/GPC3 colocalization, confocal microscopy | HepG2 | 3 µM |  | Pearson correlation coefficient | 0.8
O=c1ccn(C2OC(COP(=O)(O)OP(=O)(O)OP(=O)(O)O)C(O)C2O)c(=O)[nH]1 (stereo not drawn) | Uncharacterized protein (Trypanosoma brucei brucei, UniProt Q386Q8) | binding, surface plasmon resonance |  |  |  | Rmax | 15.2 ± 0.02 RU
CN(C)[C@@H]1C(=O)C(C(N)=O)=C(O)[C@@]2(O)C(=O)C3=C(O)c4c(O)cccc4[C@@](C)(O)[C@H]3C[C@@H]12 | T2, RNA aptamer A13U | fluorescence titration |  | pH 7.5, 25 °C, MgCl2 10 mM |  | Kd | 222 nM
CC[C@H](C)[C@H](NC(=O)[C@H](CO)NC(=O)[C@H](CCCCN)NC(=O)CNC(=O)[C@H](CCCCN)NC(=O)[C@H](CC(=O)O)NC(=O)[C@H](Cc1c[nH]cn1)NC(=O)[C@H](CC(C)C)NC(=O)[C@H](CC(C)C)NC(=O)[C@H](CCC(N)=O)NC(=O)[C@H](Cc1c[nH]cn1)NC(=O)[C@H](CCC(=O)O)NC(=O)[C@H](CO)NC(=O)[C@@H](NC(=O)[C@H](C)N)C(C)C)C(=O)N[C@@H](CCC(N)=O)C(=O)N[C@@H](CO)C(=O)N[C@@H](CCSC)C(=O)N[C@@H](CCC(=O)O)C(=O)N[C@@H](CCCNC(=N)N)C(=O)N[C@H](C(=O)N[C@@H](CCC(=O)O)C(=O)N[C@@H](Cc1c[nH]c2ccccc12)C(=O)N[C@@H](CC(C)C)C(=O)N[C@@H](CCCNC(=N)N)C(=O)N[C@@H](CCCCN)C(=O)N[C@@H](CCCCN)C(=O)N[C@@H](CC(C)C)C(=O)N[C@@H](CCC(N)=O)C(=O)N[C@@H](CC(=O)O)C(=O)N[C@H](C(=O)N[C@@H](Cc1c[nH]cn1)C(=O)N[C@@H](CC(N)=O)C(=O)N[C@@H](Cc1ccccc1)C(=O)N[C@@H](CCCCNC(=O)c1ccc2c(c1)C1(OC2=O)c2ccc(N(C)C)cc2Oc2cc(N(C)C)ccc21)C(N)=O)C(C)C)C(C)C | Parathyroid hormone/parathyroid hormone-related peptide receptor (PTH1R, Homo sapiens, UniProt Q03431) | binding, NanoBRET | HEK293 |  |  | koff | 0.041 ± 0.01 s⁻¹
CC(C)C[C@H](NC(=O)[C@H](C)NC(=O)[C@H](CCCCN)NC(=O)[C@H](CO)NC(=O)[C@H](Cc1ccccc1)NC(=O)[C@H](C)NC(=O)[C@H](Cc1ccccc1)NC(=O)[C@H](CCC(N)=O)NC(=O)CNC(=O)[C@@H]1CCCN1C(=O)[C@H](Cc1ccccc1)NC(=O)[C@@H](N)Cc1ccc(O)cc1)C(=O)N1CCC[C@H]1C(=O)N[C@@H](CCCNC(=N)N)C(=O)N[C@@H](CO)C(=O)O | Chemerin-like receptor 1 (CMKLR1, Homo sapiens, UniProt Q99788) |  | L1.2 transfected with CMKLR1 | 100 nM, together with: carboxypeptidase N or B 30 nM |  | chemotaxis | no effect
COc1c2c(cc3oc(=O)cc(-c4ccc(Cl)cc4)c13)C(=O)c1cc(C)cc(O)c1C2=O | mushroom tyrosinase | enzyme activity |  | 100 µg/mL, together with: L-DOPA |  | inhibition | 86.34 ± 0.21%
O=C(c1cc2c(s1)CCCCC2)N1CCC(n2c(=O)[nH]c3ccccc32)CC1 | Short transient receptor potential channel 6 (Trpc6, Mus musculus, UniProt Q61143) | ion current, agonist, whole-cell patch clamp |  | 10 µM, wild type |  | maximal current density | 95.6 ± 14.6 pA/pF
COc1cc(CNC(=O)C[C@H](C)CCC=C(C)C)ccc1O | SK-OV-3 ovarian cancer cells | SRB |  | 10 µM, 48 h |  | growth percent | 97.8%
O=C(O)[C@H]1O[C@@H](O[C@H]2C=Cc3c(cc4ccc5cccc6c7ccccc7c3c4c56)[C@@H]2O)[C@H](O)[C@@H](O)[C@@H]1O | UDP-glucuronosyltransferase 1A7 (UGT1A7, Homo sapiens, UniProt Q9HAW7) | glucuronidation, substrate | UGT-expressing HEK293 homogenate | normalized to UGT expression |  | kcat/Km | < 0.0167 M⁻¹ s⁻¹

For quick reference, copied from above:
SMILES | tested on | assay | test system | setting | scale | measurement | result
O=C1NC(=O)C(=Cc2ccc(-c3cccc(C(F)(F)F)c3)o2)S1 | CD38 | cyclase activity, fluorometric |  | 50 µM, together with: NGD+ substrate | relative to: untreated | remaining activity | 12.9 ± 4.3%
COc1cc(CNC(=O)C[C@H](C)CCC=C(C)C)ccc1OCc1cn(-c2ccccc2F)nn1 | SK-MEL-5 melanoma cells | SRB |  | 10 µM, 48 h |  | growth percent | 70.8%
CSCC[C@H](NC(=O)[C@H](CC(C)C)NC(=O)[C@H](CCCCN(C)C)NC(=O)[C@H](CCCCNC(C)=O)NC(=O)[C@H](Cc1c[nH]cn1)NC(=O)[C@H](CCCNC(=N)N)NC(=O)[C@H](CO)NC(=O)[C@@H](N)[C@@H](C)O)C(=O)N[C@@H](Cc1ccccc1)C(=O)N[C@@H](CCCCN)C(=O)O | human 53BP1 tandem Tudor domain D1521Y |  |  | concentration not given | relative to: wild type over mutant | binding affinity decrease | ~9 fold
CC(=O)NCCN(CC(=O)NCCN(CC(=O)NCCN(CC(=O)NCCC(N)=O)C(=O)C[C@@H](N)CCCNC(=N)N)C(=O)C[C@@H](N)Cc1ccccc1)C(=O)C[C@@H](N)Cc1ccccc1 | HIV-1 TAR RNA |  |  | concentration not given |  | heat capacity change ΔCp | -1.35 ± 0.16 kJ/mol/K
